Experimental data pooled from the literature.
Every numbered part comes from another study and shows a few of its results, in no order. Changes are numbered by the printed parent chain.

Set 1 — target: CCNE1, cyclin fold, Cln2 fusion (human); technique: yeast growth competition, sequencing; medium: yeast; setting: weak parent motif; reference: not given; reading: higher = stronger binding
Parent: CDT1 docking peptide (human); PPARRRLRLSVDE
Substitution	normalised enrichment score
PPARARLRLSVDE [R5A]	-0.425
PPARKRLRLSVDE [R5K]	0.731
PPARRRLRASVDE [L9A]	0.495
PPARRRLRLSVAE [D12A]	1.75
PPARRRLRFSVDE [L9F]	4.31
PPARRRLRLAVDE [S10A]	-0.189
PPARRRLRLSVDA [E13A]	1.32
APARRRLRLSVDE [P1A]	0.206
PPARARARLSVDE [R5A L7A]	-0.373

Set 2 — technique: RNA Bind-n-Seq; molecule type: RNA; medium: in vitro; concentration: 365 nM; reference: no-protein control; reading: higher = stronger binding
Target: RNA binding protein fox-1 homolog 2, RRM domain, GST-SBP tag (RBFOX2, Homo sapiens, UniProt O43251-10, residues 100-194)
Setting: natural RNA segment, single round, ends assumed
Target sequence (chain): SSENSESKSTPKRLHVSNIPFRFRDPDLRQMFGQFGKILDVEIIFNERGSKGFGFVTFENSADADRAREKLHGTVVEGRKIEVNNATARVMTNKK
Sequence	RBNS enrichment (R)
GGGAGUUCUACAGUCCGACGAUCUACUGUCUGAUUGGCUUGUAGAAUUGUUAUAGACUGCCGUGCAUUAGCACAGAUUUUAAUUGUCAUGGUUACAAACUACAGACCUGCUUUUUGAAAUGAAAUUUAAACAUUGGAAUUCUCGGGUGCCAA	0.604
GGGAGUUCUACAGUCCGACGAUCAGGUCAGCCAUUCGGAAGCUGGCAGCAUUUUAUCGCAACUUUGAGCAUCUCAGAUGGGGAAGGCACCUUCUUCCUCGCCUCUCCAGAUUGUCCUGGAACCUCCAGGAUCCUGGAAUUCUCGGGUGCCAA	0.782
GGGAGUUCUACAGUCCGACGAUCACCGAGCAAGGUGGGUGGCUCUGGCACGAGUCCCCCAGGGGGAGAGCAUGGCUACCAGGGAGCUGCAGCGGAGCCCUCCAGCCCUCACCCCAGGCCAGCCCCACCCCGGCUGGAAUUCUCGGGUGCCAA	2.71
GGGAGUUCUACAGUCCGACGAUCACCAACAUGGAGAAACCCUGUCUCUAUUAAAAAUACAAAAAAAAAAAAAAAAAAAAUAGCCGGGCAUGGUGGCGCAAGCCUGUAAUCCCAGCUACUCAGGAGGCUGAGGCUGGAAUUCUCGGGUGCCAA	1.43
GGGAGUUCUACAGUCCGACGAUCUCAAGGGGCUACACUCCCCAUCAGGCAGCAUCCCACCAGCCUGCACCACAGGCUCCCCUGGGAGGACGAGGGAAACGCUGAUGAGACGCUGGGCAUCUCUCCUCUGUGGCUGGAAUUCUCGGGUGCCAA	0.394
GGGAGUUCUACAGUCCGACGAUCGAAGUACCCCUGGAUCAUGUCCGAGUUUUUGUCUUUCACUGUCUGAAUCAUGUUCCAGCUGCUUGACCCUACCGUGUGGGUUCAGAGCUCGUUUGGGCGUAACAACUAAGUGGAAUUCUCGGGUGCCAA	0.269
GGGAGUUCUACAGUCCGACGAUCUGUGGGAGCCCGAGGACGCAGACUCGAGUUCCGCUUGGUCACUGUGAUUUCUGUUUUGUCUACAGACUCUUAACAAACCUCAGGAAAACUGUCCCUCUACCAGUUACCUUUGGAAUUCUCGGGUGCCAA	0.42
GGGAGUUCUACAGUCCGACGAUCUGGGUGUUUCCCACCCAAUCCUGCUCCCUGACUCCCUAGAGACUAAGAGGACUCUCCCUGACCAAGGACUAAAAAGCCUUUGGGGAUGCUGGUAUGAUGGACCAGGCAGGUGGAAUUCUCGGGUGCCAA	0.357
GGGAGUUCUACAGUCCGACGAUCUCUCUGGUGGGCAGAGAGGGAUGGGGUCCCUGAGCCAGGCCCCACCCAUCACAGCAUUCCCAGGUCCUGGUACCCAGCCCUCAGUUGUCAUUUGGUUCAGAAUCAGUUCCUGGAAUUCUCGGGUGCCAA	0.513
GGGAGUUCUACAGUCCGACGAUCGGUUCCAGCUGAGUGGCUUGCAGGCGUGAGCGCAGGGCACGGUGGUCAGCGUGCAGCGGGACGGGACUGGCCCUGCCCAGCCAUGAAUCGCUUGGCCAUGCCUGGAUCUGUGGAAUUCUCGGGUGCCAA	0.426
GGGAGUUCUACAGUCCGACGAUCCUAAGUUAUUGUCAAAACUGGGCAGGAGACAGGAGAUUGGAGUGGUCUCUGCUGGGGUGUCUGACCCUCCACCACCUCACCUUGUUGGUACCUCCCUCCCUGAAUUCCUGUGGAAUUCUCGGGUGCCAA	0.401
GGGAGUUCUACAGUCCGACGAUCCAGCCUCCCAAGUAGCUGGGAUUACAAGCAUGUGCCACCAUGCCCAGCUAAUUUCUGUAUUUUAGUAGAGACAAGGUUUCACCAUGUUGGCCAGGCUGGUCUCGAACUCCUGGAAUUCUCGGGUGCCAA	0.711

Set 3 — target: BATF2, bZIP domain (human); technique: DHFR protein complementation; medium: yeast; reference: wild-type JUN-FOS pair; reading: higher = stronger binding
Setting: single substitutions, most at no-binding floor
Parent: JUN, bZIP domain (human); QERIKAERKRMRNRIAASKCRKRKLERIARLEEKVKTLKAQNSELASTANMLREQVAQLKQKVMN; partner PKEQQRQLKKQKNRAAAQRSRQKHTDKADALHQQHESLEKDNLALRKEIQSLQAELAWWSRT
Substitution	binding fitness [natural log]
A49Q	-1.25
V56P	-1.26
N42S	-1.31
L52A	-1.31
I28Q	-0.37
A49L	-0.502
K39P	-1.28
R53L	-1.19
R30S	-0.158
S43I	-0.157
I28K	-0.556
A29H	-0.397
I28G	-0.541
E44N	-0.588
L31T	-1.05
Q41G	-1.27
L45K	-1.51
T37E	-0.135
R30H	-0.185
Q55E	-0.482
E54I	-0.46
Q55P	-1.47
L31P	-1.38
E54A	-0.464
A40M	-0.377

Set 4 — target: UBE2U UBC core domain (UniProt Q5VVX9); technique: yeast two-hybrid; medium: yeast; setting: mostly zero background; reference: not given; reading: higher = stronger interaction
Chain of UniProt Q5VVX9 (whole entry, looked up): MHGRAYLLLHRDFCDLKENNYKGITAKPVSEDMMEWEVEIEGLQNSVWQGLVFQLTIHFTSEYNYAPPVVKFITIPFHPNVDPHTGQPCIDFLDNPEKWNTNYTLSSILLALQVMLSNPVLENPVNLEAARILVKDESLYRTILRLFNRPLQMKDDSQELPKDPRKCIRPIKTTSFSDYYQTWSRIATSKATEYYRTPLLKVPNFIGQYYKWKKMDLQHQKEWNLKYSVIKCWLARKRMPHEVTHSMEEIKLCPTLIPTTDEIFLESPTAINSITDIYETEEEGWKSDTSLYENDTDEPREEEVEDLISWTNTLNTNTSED
B1: DTX2 RING domain (UniProt Q86UW9); chain EELKVPPDEDCIICMEKLSTASGYSDVTDSKAIGSLAVGHLTKCSHAFHLLCLLAMYCNGNKDGSLQCPSCKTIYGEKTGTQ
B2: MDM4 RING domain (UniProt O15151); chain MEDCQNLLKPCSLCEKRPRDGNIIHGRTGHLVTCFHCARRLKKAGASCPICKKEIQLVIKVF
B3: RFWD3 RING domain (UniProt Q6PCD5); chain ASMDEEEGDTCTICLEQWTNAGDHRLSALRCGHLFGYRCISTWLKGQVRKCPQCNKKARHSDIVV
B4: ZMIZ2 RING domain (UniProt Q8NF64); chain GTIPGTPGPNGEDGVEQTAIKVSLKCPITFRRIQLPARGHDCRHIQCFDLESYLQLNCERGTWRCPVCNKTALLEGLEVDQYMLGILIYIQNSDYEEITIDPTCSWK
B5: RNF19A RING domain (UniProt Q9NV58); chain ISKQIGDFIECPLCLLRHSKDRFPDIMTCHHRSCVDCLRQYLRIEISESRVNISCPECTERFNPHDIR
B6: RNF121 RING domain (UniProt Q9H920); chain MPTKHLSDSVCAVCGQQIFVDVSEEGIIENTYRLSCNHVFHEFCIRGWCIVGKKQTCPYCKEKVDLKRMFS
B7: RBCK1 RING domain (UniProt Q9BYM8); chain SLVLNTEPAECPVCYSVLAPGEAVVLRECLHTFCRECLQGTIRNSQEAEVSCPFIDNTYSCSGKLLEREIK
Sequence	lacZ reporter activity
B1 (DTX2 RING domain)	3810
GSRLQEINDVCAICYHEFTTSARITPCNHYFHALCLRKWLYIQDTCPMCHQKVYIEDDIK (RNF139 RING domain (UniProt Q8WU17))	9470
B2 (MDM4 RING domain)	12500
AMYLQENGIDCPKCKFSYALARGGCMHFHCTQCRHQFCSGCYNAFYAKNKC (RNF31 RING domain (UniProt Q96EP0))	2820
B3 (RFWD3 RING domain)	0
B4 (ZMIZ2 RING domain)	0
B5 (RNF19A RING domain)	0
PEDRESLKSACVVCLSSFKSCVFLECGHVCSCTECYRALPEPKKCPICRQAITRVIPLY (MUL1 RING domain (UniProt Q969V5))	7170
KETIKKTTKPCPRCHVPVEKNGGCMHMKCPQPQCRLEWCWNCGCEWNRVCMG (PRKN RING domain (UniProt O60260))	0
B6 (RNF121 RING domain)	10700
KLRKLKEAMLCMVCCEEEINSTFCPCGHTVCCESCAAQLQSCPVCRSRVEHVQHVY (MYLIP RING domain (UniProt Q8WY64))	8230
B7 (RBCK1 RING domain)	0
